Assay results of several laboratories.
Every numbered part comes from another study and shows a few of its results, in no order. Positions count from the first letter of the parent shown.

Block 1 — method: protein binding microarray; form: double-stranded DNA, one strand shown; matrix: in vitro; tested at: not given; baseline: not given; reading: higher = stronger binding
Target: Histone acetyltransferase KAT6A, winged helix 2, GST fusion (KAT6A, Homo sapiens, UniProt Q92794, residues 85-181)
Setting: 8-mer, flanks averaged, mean of 2 arrays, mostly near background
Residues (chain): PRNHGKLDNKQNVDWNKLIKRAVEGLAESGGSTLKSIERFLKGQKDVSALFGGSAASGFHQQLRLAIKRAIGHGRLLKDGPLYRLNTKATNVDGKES
Sequence	E-score
GGAGGTTA	-0.192
GCCTACCC	-0.0587
CCACAGCG	0.206
CGTGAGGA	-0.258
ATCCTTAC	-0.201
GTTTCAAA	0.0583
ACTACGAT	0.0102
CCACATGA	-0.207
CCATAGGG	-0.112
CTGCCCGC	0.176
ACGAACGC	0.183
CAAAGAAC	0.21
CTACATTA	-0.0829
AGCCGACA	0.0839
ATAAGTGA	-0.0933
CATCTGCG	0.172
GCACATCA	-0.0599

Block 2 — method: RNAcompete; form: RNA; matrix: in vitro; tested at: 20 nM; setting: 7-mer, probes averaged, single round; baseline: mean of 7-mers; reading: higher = stronger binding
Target: PABPC1L2, full length, GST fusion (mouse, UniProt A0ABA7IW68)
Residues (chain): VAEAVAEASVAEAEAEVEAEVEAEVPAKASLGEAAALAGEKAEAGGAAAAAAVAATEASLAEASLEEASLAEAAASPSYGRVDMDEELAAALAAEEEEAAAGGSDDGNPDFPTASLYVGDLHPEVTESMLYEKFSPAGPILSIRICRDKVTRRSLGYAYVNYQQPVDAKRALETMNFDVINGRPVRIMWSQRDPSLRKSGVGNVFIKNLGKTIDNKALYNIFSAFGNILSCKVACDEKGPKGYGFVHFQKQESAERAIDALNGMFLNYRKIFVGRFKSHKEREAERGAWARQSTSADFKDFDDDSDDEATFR
Sequence	7-mer Z-score
UAAAUCC	0.138
CCGAUAU	-0.177
UGGGCCA	0.0134
GUGUCGU	-0.456
GCUGCGG	0.0406
CUACGUA	-0.233
UUUCUCC	-0.347
ACUCUGA	-0.204
GAGCCUA	-0.204
ACAGCAA	0.0932
GGAAUAG	0.0315
ACAAGAU	0.128
UAAUCUG	-0.2
CCCCGGC	-0.412
UACCAAU	-0.161
AGGGGCG	0.486
GGACGCC	0.017
CCGCGCG	-0.316
CAGGGGG	0.537
CAAAAUA	2.92
CCGUUGC	-0.46
UGUAGAC	-0.146
GGGGUAG	0.195

Block 3 — method: protein-binding microarray; form: double-stranded DNA, one strand shown; matrix: in vitro; tested at: 0.8 µM; setting: whole 60-bp probe, no competitor; reading: higher = stronger binding; shared flanks, not repeated: … GTCTTGATTCGCTTGACGCTGCTG
Target: Centromere-binding protein 1, full length, N-terminal tag (CBF1, Saccharomyces cerevisiae, UniProt P17106, residues 1-351)
Chain of UniProt P17106 (whole entry, looked up): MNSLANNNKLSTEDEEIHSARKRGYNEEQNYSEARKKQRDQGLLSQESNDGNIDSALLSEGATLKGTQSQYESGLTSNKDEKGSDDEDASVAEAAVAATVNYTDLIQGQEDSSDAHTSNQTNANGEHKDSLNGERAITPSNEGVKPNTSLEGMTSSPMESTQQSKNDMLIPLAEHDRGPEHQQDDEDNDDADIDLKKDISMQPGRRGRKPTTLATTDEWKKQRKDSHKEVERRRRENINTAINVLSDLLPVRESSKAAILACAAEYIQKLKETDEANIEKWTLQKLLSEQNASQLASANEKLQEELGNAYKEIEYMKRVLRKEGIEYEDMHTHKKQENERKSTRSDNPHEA
Sequence	fluorescence intensity [a.u.]
CCTAACTACTATAAATACGTCACATAGCTTCGTACA	577
GAAAAAAGATACATCGTGGTGATGAAGAAGAGATAG	555
GAACCAAAAACGGACGTCACAAATTACTGCTTTTAG	518
GAACCTTTATCTTCCACGCTGATGTAAAGTGTATAG	588
CTAACCAGCAAATTTAACATCATGCCGGCATTGTTC	551
GAACAGCAGAAGGGTGATCAGTTGAGGTGGAGATAG	587
GAAATCAAAGTGCACTACGTGACAAAAATAAAATAG	814
CCTAACTACTATAAAATCGTGTCATAGCTTCGTACA	499
CTATAGTAGTGCTCATCCGTGATCCTTTAATTTTTC	597
GAAGAAGGAACATAACACGTTACTATTTGTCTATAG	626
CCTAACTACTATAAAAGTGTGCGATAGCTTCGTACA	487
GAAACGACTTGAACTTACGTGATTATATGTATATAG	545
CTAAAGTTTGATTGTCACGGTCATCTGAGATATTTC	776
CTATTTTAATTACATCGTGACAACGGTTTCCTATTC	809
GAATAAATGCTGCCAAAGGTGATGCGGTTTTGTTAG	525
GAATAAATCGTATGTTACGTGTATGCAAGTCGCTAG	513
CTACGGGTGCAATGTCACGTGCACATCACATATTTC	26200
CTAGTTTTGACTAGTCTCATGAAATAAACATTATTC	512
CTAAAATGCCCCCCTCAGGTGTCGTTAAATAAGTTC	514
CTAAGGCGTCAGTCAGGTGCAATTAATAGGTCATTC	1520
CTACGGTACCTATATACCACCAGAAGTATGTGTTTC	497
GAAAAGCATATGAGTCACGACGTGACCCTCGAATAG	1320

Block 4 — target: CCNA1, cyclin fold, Cln2 fusion (human); method: yeast growth competition, sequencing; matrix: yeast; setting: weak parent motif; baseline: not given; reading: higher = stronger binding
Parent: SCAPER docking peptide (human); SNARRSLNFGGST
Change	normalised enrichment score
S6D	0.456
R4E	-0.0249
L7G	0.149
G10L	0.366
G11Y	0.573
S12H	0.821
L7Q	0.607
R5T	0.209
L7A	0.685
N2F	0.769
R4C	0.271
S6G	0.621
T13N	0.863
G10V	0.2
G11M	0.462
G10N	0.473
N2V	0.684
G10S	0.435
G10E	0.742
N8K	0.516
N2R	0.649
A3H	0.326
G10T	0.585
S6M	0.596
A3V	0.337

Block 5 — method: universal PBM; form: double-stranded DNA, one strand shown; matrix: in vitro; tested at: not given; reading: higher = stronger binding
Target: Sal-like protein 4, full length isoform B (SALL4, Homo sapiens, UniProt Q9UJQ4-2, residues 1-616)
Setting: 8-mer, flanks averaged, mean of replicates
Sequence	E-score
ACCCGGCG	-0.396
CACCGGAC	-0.376
CGTGTGAC	-0.137
ACGAATGA	0.136
CCCGGTGA	-0.351
AACAGACG	-0.148
ACAGCCAG	-0.0915
GCAAGTAA	0.106
AGAGATTG	0.0705
AATAGGGG	0.12
CGACAACC	-0.176
ACCGACAC	-0.0722
AAGAGGTC	-0.0442
ATCGGAGG	-0.0672
AACTTGCA	0.0904
ACAGCTGC	-0.0506
CACTTCGG	-0.177

Block 6 — method: RNA Bind-n-Seq; form: RNA; matrix: in vitro; tested at: 365 nM; baseline: no-protein control; reading: higher = stronger binding
Target: RNA binding protein fox-1 homolog 2, RRM domain, GST-SBP tag (RBFOX2, Homo sapiens, UniProt O43251-10, residues 100-194)
Setting: natural RNA segment, single round, ends assumed
Shared flanks, not repeated: GGGAGUUCUACAGUCCGACGAUC … UGGAAUUCUCGGGUGCCAA
Target sequence (chain): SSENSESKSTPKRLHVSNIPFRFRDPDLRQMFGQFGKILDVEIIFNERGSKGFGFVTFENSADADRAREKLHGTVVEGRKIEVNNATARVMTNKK
Sequence	RBNS enrichment (R)
UUCCACUCGCCCACCAGAAGCAGCUCUAGUCACCUGCACAACCGCUUCCAUGACCUUGGAGGUAUAUCCCAAGCUCUCAUUGGCAGAUGAGGCAAGAGAUAAGGGCAGGA	0.45
UGCAGUACGAAUUUAAUACUUAUAAAGGUUUGCAUUAAUGAGGAUUACACAGAAAACCUUUGUUAAGGACUUGUGUAGAUCUGAUAAUUGGCAAAUUUUUAUUUUAAAAG	0.529
UGAGUGGGGGGAAGGGCAGCUGUUAUCUUGCCAAGCCUGGUUGUAAUUUGUAACCAUUUUCUAUUUGUUCGAACUCUGUAAAUAAUAUGUUUAAAGAUGUAAUAUUUUGU	0.627
AGUUGAGCUUUUAAAAUAUUAUUUAUAGACAAUAGAAGUAUUUCUGAACAUAUCAAAUAUAAAUUUUUUUAAAGAUCUAACUGUGAAAACAUACAUACCUGUACAUAUUU	0.664
CUUAGGUUUUUAGGAGUCUGAGCAUCCAUCAAUACCUGUACUAUGAUGGGCUUCUGUUCUCUGCUGAGGGCCAAUACCCUACUGUGGGGAGAGAUGGCACACCAGAUGCU	0.251
CCAGGCUGCUGUAGUCCACCUGUGCCCUACUCAUUUGGGGACAGGUGGUUUUUCUUGUAAACUUGUGGACUUUUGAAACCUGUUGACUAAACAGUAAUUAAUUUAUAUUU	0.458
GAAUAAAGUUAUGUUCUGAUAGUUUGUACAGAAAAAAUAAAAUGGAUGCCCAUGUUUUAUUGCUAUUACUAAAUGUCAAGAUUGUAUGCUAUUAUGUCUUGUAAAUUUCU	7.49
CCUCCCCAGCUUCCUGCCCAAAGAGCCCCACAUUCAAGCCAACUUGAGGGAAGGGGGCGUCUCGUCAGCUGGUCCCUGCUAGGGAGCUAUUGAUGUGCAAUAUUAGAAAG	0.194
GAAGAGUCAGGCGAGGCCUGAUGGCUUUUAGGCCUUUCAUUCAACCAAUGUCAUUGUCCAAACAGAAGAGACUCAGGAGUCUGAGUAAAAUUGUGUUCCCUUGCCCUGAG	0.326
AGCCUGCACUCUGUUUAGUCAGCCGACUCAGGUUAUCUUCAGGGAAGGUAUGGAGGCAUGGUUUGUUUCGGUUCAUCUCCAGGAUGUAUACAGUGAAGACAAACCAAAUA	0.262
UUAUUUUUGCACAAAUGACUCUUUUAUAUUUAAUUCGACUUCAUUGCCUCCCUUCUUAAAGCUAGCAGGCUCAGUUUACAAACCUGUGAGCUACUGUUGGCUGCUGCCCU	0.579
GAAGCUGGGACUACAGGCGCCCGCCACCACGCCCGGCUAAUUUUUUUGUAUUUUUAGUAGAGACGGGGUUUCACUGUGGUCUCGAUCUCCUGACCUCGUGAUCCGCCCGC	0.314

Other studies, line by line
Molecule	target	test	system	setting	how to read	endpoint	value
PhoQ, residues 284 288 289 292 302 303 SLANKL	PhoP, residues 12 14 15 18 19 TPLRH (Escherichia coli, UniProt P23836)	Sort-seq, refers to: YFP reporter	E. coli	PhoQ-PhoP variant library, together with: 10 µM Mg2+	baseline: high Mg2+ state, higher = stronger signaling	fold induction	4.05

Excerpt of the above (block 3):
Sequence	fluorescence intensity [a.u.]
CTAAAGTTTGATTGTCACGGTCATCTGAGATATTTC	776
CTATTTTAATTACATCGTGACAACGGTTTCCTATTC	809
GAATAAATGCTGCCAAAGGTGATGCGGTTTTGTTAG	525
GAATAAATCGTATGTTACGTGTATGCAAGTCGCTAG	513
CTACGGGTGCAATGTCACGTGCACATCACATATTTC	26200
CTAGTTTTGACTAGTCTCATGAAATAAACATTATTC	512
CTAAAATGCCCCCCTCAGGTGTCGTTAAATAAGTTC	514
CTAAGGCGTCAGTCAGGTGCAATTAATAGGTCATTC	1520
